Experimental data of several laboratories.
A part holds a random share of what one study measured.

Study 1 — method: RNA Bind-n-Seq; molecule type: RNA; medium: in vitro; concentration: 200 nM; notes: whole 134-nt RNA, ends assumed; added: 150 mM KCl; reference: input library; reading: higher = stronger binding; measurement: log2 enrichment
Target: Ras GTPase-activating protein-binding protein 1, full length (G3BP1, Homo sapiens, UniProt Q13283)
Chain of UniProt Q13283 (whole entry, looked up): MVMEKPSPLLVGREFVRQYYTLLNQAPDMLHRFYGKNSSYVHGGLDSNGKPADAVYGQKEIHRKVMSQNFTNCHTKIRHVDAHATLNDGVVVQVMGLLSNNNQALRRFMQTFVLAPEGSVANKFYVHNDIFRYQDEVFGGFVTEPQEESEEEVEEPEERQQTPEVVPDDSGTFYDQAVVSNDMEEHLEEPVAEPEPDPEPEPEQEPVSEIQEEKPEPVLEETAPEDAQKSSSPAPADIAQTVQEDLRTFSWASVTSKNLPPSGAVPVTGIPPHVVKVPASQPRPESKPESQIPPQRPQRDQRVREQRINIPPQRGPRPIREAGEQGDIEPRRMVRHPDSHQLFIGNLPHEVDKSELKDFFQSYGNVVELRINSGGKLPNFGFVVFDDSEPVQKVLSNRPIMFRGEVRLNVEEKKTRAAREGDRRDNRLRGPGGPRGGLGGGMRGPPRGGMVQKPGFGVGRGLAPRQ
Constant ends, left off below: GGGAGUUCUACAGUCCGACGAUC … UGGAAUUCUCGGGUGUCAAGG
CCUCAAGUCCUGUGCUACACAUCGUAUGUACCGAAUCGGUUGGUUGGUUGGGGAAAGUAUUAUGUUACGCCGUUCGGAUCUGCACUUCCA: -0.299
GUCCUGUGCUACACAUCGUAUGUACCGAAUCAAAUUUUUAAAUUUAAAUUUUUUUAAAAAAGUAUUAUGUUACGCCGUUCGGAUCUGCAC: -1.47
AGUCCUGUGCUACACAUCGUAUGUACCGAAUCGGGGUUUUGGGUUUUGGUUUUGGGGAAAGUAUUAUGUUACGCCGUUCGGAUCUGCACU: -0.474
AGUCCUGUGCUACACAUCGUAUGUACCGAAUCGGGUUUUUGGGUUUUUUUGGGUGGGAAAGUAUUAUGUUACGCCGUUCGGAUCUGCACU: -0.132
CACAGACAACACGCACCCACACAGACACAGAGGGAAGGGGUUGGGAUGGGGACAGGGUGCACAGCAGGGCGGGGUAGGACCCCAAACCCU: 1.97
UCCUGUGCUACACAUCGUAUGUACCGAAUCGGGGAGGGGUUUUUUUGGGGUUUUUGGGGAAAGUAUUAUGUUACGCCGUUCGGAUCUGCA: 0.594
AGUCCUGUGCUACACAUCGUAUGUACCGAAUCGGGAAAAAGGGAGGGUUUUUUUGGGAAAGUAUUAUGUUACGCCGUUCGGAUCUGCACU: 0.0745
UCCUCAAGUCCUGUGCUACACAUCGUAUGUACCGAAUCGGUGGAAAGGAGGAAAGUAUUAUGUUACGCCGUUCGGAUCUGCACUUCCAGC: -0.588
CUCAAGUCCUGUGCUACACAUCGUAUGUACCGAAUCGGGUUUGGGAGGGAGGGAAAGUAUUAUGUUACGCCGUUCGGAUCUGCACUUCCA: 1.44

Study 2 — method: RNA Bind-n-Seq; molecule type: RNA; medium: in vitro; concentration: 20 nM; notes: 6-mer, flanks averaged, single round; added: 150 mM KCl; reference: input library; reading: higher = stronger binding; measurement: 6-mer enrichment (R)
Target: TAR DNA-binding protein 43, full length, His tag (TARDBP, Homo sapiens, UniProt Q13148, residues 1-414)
UGCUUA: 0.617
UCCGGC: 0.83
AGACCU: 0.632
CCAAGG: 1.14
CAAAUU: 0.615
GAAACG: 0.988
GUCAUC: 0.612
CCCGUG: 0.796

Study 3 — method: RNA Bind-n-Seq; molecule type: RNA; medium: in vitro; concentration: 365 nM; reference: no-protein control; reading: higher = stronger binding; measurement: RBNS enrichment (R)
Target: RNA binding protein fox-1 homolog 2, RRM domain, GST-SBP tag (RBFOX2, Homo sapiens, UniProt O43251-10, residues 100-194)
Notes: natural RNA segment, single round, ends assumed
Constant ends, left off below: GGGAGUUCUACAGUCCGACGAUC … UGGAAUUCUCGGGUGCCAA
Construct (chain): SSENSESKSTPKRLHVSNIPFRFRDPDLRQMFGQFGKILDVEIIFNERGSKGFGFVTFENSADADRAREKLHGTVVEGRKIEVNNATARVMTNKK
UUGUCAGCACCUGGAAACAUCUGCCUUCUUAAAUGCAGUACAUUCUAAAGAGAGUGAGCAUGAGCUCACUCCAUCACUCGAUGAGAUAAUAUGAGAUUUCUACUUCGGAG: 0.274
ACAUAGCUGGUUAACCUUGAAGUGACUGUUGUACCAUGGUUGUGCACAUGCUUCAGAAUCCUAUGGAAGAGAAUAUUCCUACUUGCAGUACAUCAAAGGAAUGGAUGGUG: 1.03
GUAAUUCUUUCUUGUGGGGGCCGUCUUGGGUACUGUAGGAAGCUGAGCAGCAUUCCUGGCCUCCAUCCACAAGAUACCUGUAGCAGUGUCCUGCCAACGGUAACAAUCAA: 0.598
UAUUUUAAAGCAGAUUUCUUCAGAAGCUAUCAUGGUCCCAGGGACUAGGUAGAAUUUUUAAGUCUAACGUGAACUUUAGCUUUAUCAGACAUUUUUGUUACUAGUGCCUA: 0.502
UUUUUAACAUAUUUUAUUUCUGCAGAGGAUAUUGGUAACUUACCAAAGAGAAGCAAUACACAGUAUGUCUGCUUUAGCCUUCUUUUAUUUAUCUCAUCUGCAGAUGUUGA: 0.469
UCUUUUUUUCAUCCUUUAAAUUGUAAAUUAAGGAUUACUCAAGCUCACCAUUAUUCAAGAUUGGGACUCGCUUCCCAGUCGACACUCUGCCCUGCCUGUCAUUGCUGCAA: 0.462
CAGAGGAGUGUGAAUGUGUGUUUGUUGCUGGCUGAAUGGCAAUAGAUGUCUAAGGUGGAUUCAGUGUCUGGCACACUGAGACACCUCCAAGAAGGAGAUUGAUGCAUCAG: 5.25
AAAGCACUCUGUUCUUCGCCUACUCUGUAAUCGUUUUGUCAUAAUGAGCCAUGAAAAAAGUAAUGAACUUGUGCUGUUAAUCGUCACUGUAAUGAGAAGUCUUACGUACA: 0.544
UUUUUGUUAACUAAAAAGUGAAAUAUGGGAUGGAUUCUAGAAAUGGGGUAUCUCUGUCCAUACUUCUAGAAUCCACUCUAUCAGCAUAGUCCAGAAGAAUACCUGGCAGU: 0.266
GCUGGAAACCUGAGUGACCCUCCCUCCCCACCAAGAGUCCACAGACCUUUCAUCUUUCACGAACUUGAUCCUGUUAGCAGGUGGUAAUACCAUGGGUGCUGUGACACUAA: 0.363
CCAGGGUAGAGCAAAGGAGACAAAGCAGGAGUGGAAGGUGAGGCGUUCUCCUGCUUGUACUAAGCCAGGAGGCUUUAAGCUCCAGCUUUAAGGGUUGUGAGCCCCUUGGG: 0.97
AUGGUAUUUCAUUAAACUGUUGCAUACCCAGUUAGCACAGUAGGUGGGGAGUCUGCUUCAUUUCUAUCAUUCCAUUUUUCUGAUUAAACUGUCAAAUCUGUCAUUGCAUA: 0.852

Mixed results
PhoQ, residues 284 288 289 292 302 303 SLSVQF — fold induction (PhoP, residues 12 14 15 18 19 GQALL (Escherichia coli, UniProt P23836); Sort-seq, refers to: YFP reporter; E. coli; PhoQ-PhoP variant library, added: 10 µM Mg2+; reference: high Mg2+ state, higher = stronger signaling): 7.23

For quick reference, copied from above (study 1):
CCUCAAGUCCUGUGCUACACAUCGUAUGUACCGAAUCGGUUGGUUGGUUGGGGAAAGUAUUAUGUUACGCCGUUCGGAUCUGCACUUCCA: -0.299
GUCCUGUGCUACACAUCGUAUGUACCGAAUCAAAUUUUUAAAUUUAAAUUUUUUUAAAAAAGUAUUAUGUUACGCCGUUCGGAUCUGCAC: -1.47
AGUCCUGUGCUACACAUCGUAUGUACCGAAUCGGGGUUUUGGGUUUUGGUUUUGGGGAAAGUAUUAUGUUACGCCGUUCGGAUCUGCACU: -0.474
AGUCCUGUGCUACACAUCGUAUGUACCGAAUCGGGUUUUUGGGUUUUUUUGGGUGGGAAAGUAUUAUGUUACGCCGUUCGGAUCUGCACU: -0.132
